Assay results gathered from unrelated publications.
A part holds a random share of what one study measured.

Series 1 — technique: RNA Bind-n-Seq; molecule type: RNA; matrix: in vitro; concentration: not given; reference: input RNA pool; direction: higher = stronger binding
Target: RING finger protein unkempt homolog, zinc fingers 1-6, GST-SBP tag (UNK, Homo sapiens, UniProt Q9C0B0, residues 30-357)
Sequence of UniProt Q9C0B0 (30-357, looked up): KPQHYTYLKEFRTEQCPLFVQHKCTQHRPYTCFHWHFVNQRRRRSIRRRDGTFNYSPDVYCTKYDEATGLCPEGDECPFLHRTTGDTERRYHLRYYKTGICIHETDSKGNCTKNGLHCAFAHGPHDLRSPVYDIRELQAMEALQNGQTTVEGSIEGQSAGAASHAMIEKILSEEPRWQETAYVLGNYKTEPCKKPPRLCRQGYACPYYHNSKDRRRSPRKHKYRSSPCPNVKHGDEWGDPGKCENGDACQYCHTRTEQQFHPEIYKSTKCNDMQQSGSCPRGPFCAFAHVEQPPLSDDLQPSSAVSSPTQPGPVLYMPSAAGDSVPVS
Notes: RNA with constant flanks, human and mouse sites, ends assumed
Shared flanks, not repeated: GGGAGUUCUACAGUCCGACGAUC … CAACAGAGGAUUGAGCAUCA
The bound/input enrichment of `AAGAGGAAGAAGGUUAAGUUGGCUGUGCUGAAAUACUAUAAGGUGGAUGAAAAUGGCAAAAUUAGCCGACUUCGUCGAGAGUGUCCUUCUGAUGAAUGUGGUGCUGGAGUUUUCAUGGGA` is reported as 0.249 ratio.
With `GCAAUCAGGCUGUAUGAACGAGGUGACGCAUCCAAAGAAGACAUUGACACUGCUAUGAAAUUAGGAGCCGGUUACCCCAUGGGCCCAUUUGAGCUUCUAGAUUAUGUCGGACUGGAUACU` the bound/input enrichment was 0.247 ratio.
For `GGCUGUGGAAUUAGUCCAGAGAUUCAUUGCGAUGGUGGCCACACCUUCAGACCGCCUUCUGUUAGUAACUACUGCAUCUGUGACAUUACAAAUGGCAAUCACAGUGUGGAUGAGAUGCAA`, the bound/input enrichment was 0.118 ratio.
For `GUUUUUAACGAUGGCAGUUCCAGGGAACUAAUGAACCUCACUGGAACAAUCCCUGUGCCUUAUAGAGGUAAUACAUACAAUAUUCCAAUAUGCCUAUGGCUACUGGACACAUACCCAUAU`, the bound/input enrichment was 0.148 ratio.
`AAGUCUUGCUAGAAUUUUUUCUAAUCUUUAGUAGAUUUGAUUAAAUAAUGAUUCACAGAAUUUAGUAACAGAAUCAAACUAAGCCAUGUAUGAGGGUAAUCGAGAUGAGGAUAUUAACUC` has a bound/input enrichment of 0.789 ratio.
The bound/input enrichment of `GAGGGUUGUGAUGUUUGGGGCUGGGAAUGUUUUUGGUAGAAUAAUGGUACAGCUUUUGGCUAGUUUCCUUGUCAAUUGCCAGUGCUGGGAGAAAGAAAUCCCAUGGAAACACAUACCAGU` is reported as 0.838 ratio.
`UACAAGGAGAUUAUCAUUGAAGCCACCAAGCACCGAAACUCGGAGGAGAUGUGGCGCCGCAUGAACCUGAUGACUCCUGAGGCCCUGGGCAAGCUCAAGGAGGAGAUGAAAAGUUGCGGG` has a bound/input enrichment of 0.316 ratio.
`UGUGAAAAGCAGGCUUUGUUUGCUUUAUGCAAGUCUGUGAAGGAAAACAGACUAGAACCUCAUCUUGUGAAAAAGGUUUUAGAGAAAGUCUCCGAAUCGUUUGGAUGUAGAAGUUUAGAA` has a bound/input enrichment of 0.876 ratio.

Series 2 — technique: protein-binding microarray; molecule type: double-stranded DNA, one strand shown; matrix: in vitro; concentration: 0.8 µM; notes: whole 60-bp probe, no competitor; direction: higher = stronger binding; shared flanks, not repeated: … GTCTTGATTCGCTTGACGCTGCTG
Target: Centromere-binding protein 1, full length, N-terminal tag (CBF1, Saccharomyces cerevisiae, UniProt P17106, residues 1-351)
Sequence of UniProt P17106 (whole entry, looked up): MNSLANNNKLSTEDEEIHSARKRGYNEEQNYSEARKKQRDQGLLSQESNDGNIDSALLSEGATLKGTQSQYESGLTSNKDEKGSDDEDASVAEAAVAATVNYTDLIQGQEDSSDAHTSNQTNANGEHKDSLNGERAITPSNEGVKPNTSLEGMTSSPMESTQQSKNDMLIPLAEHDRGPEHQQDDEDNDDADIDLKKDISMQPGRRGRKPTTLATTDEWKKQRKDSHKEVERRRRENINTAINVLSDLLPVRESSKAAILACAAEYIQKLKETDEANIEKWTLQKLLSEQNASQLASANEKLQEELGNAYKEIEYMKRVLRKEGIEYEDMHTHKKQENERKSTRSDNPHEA
`CCTAACTACTATAAAGGTAACGTATAGCTTCGTACA` has a fluorescence intensity of 502 a.u.
`CTAATAAACAGAGCAAATATCACGTGCACAAAGTTC` gave a fluorescence intensity of 14600 a.u.
`CTACAACGGTAGAGGTGACTCACTTGGAAGCTTTTC` has a fluorescence intensity of 483 a.u.
For `TGTACGAAGCTATGTCACGTGAATATAGTAGTTAGG`, the fluorescence intensity was 15900 a.u.
`GAATCAGTGGATTCTGATGTAATTGTTGGGATTTAG` has a fluorescence intensity of 501 a.u.
`CTACTAACGGAGCGTCACCAACCTGACCTTCCTTTC` has a fluorescence intensity of 526 a.u.
With `GAATGCCTTGCCTCTCCCGTGCTTTTTTGTTTTTAG` the fluorescence intensity was 579 a.u.
For `CTATCGCAACGGTACGTCGTGATTTTTTTATGGTTC`, the fluorescence intensity was 700 a.u.
With `GAAGATATCTCAGATGACGTCATTGAGCTAGCTTAG` the fluorescence intensity was 507 a.u.
For `CTATGTCATTGTTTTTGCACCACCTTGTTACATTTC`, the fluorescence intensity was 576 a.u.
`GAAGAAATTAGAAAACAGGTGAAGACCACTATTTAG` has a fluorescence intensity of 505 a.u.
`CTAGTTCCATAGTGTGATCTGATGTTCCTTTCTTTC` gave a fluorescence intensity of 612 a.u.
With `GAAGGGTCAGCAACTGACGTGACTCAGCCTGGCTAG` the fluorescence intensity was 632 a.u.
For `GAATCCAGCATTCATTATCACATGGATCTTATATAG`, the fluorescence intensity was 1560 a.u.
`GAAGAGAGTACTCATCATCACACTATAAGCTTTTAG` has a fluorescence intensity of 519 a.u.
With `GAATCTCGAAAGGTCATCGTGTAAAAGTTCTACTAG` the fluorescence intensity was 527 a.u.
With `CTAGGTGATACACATCATCACATCCTATATGAATTC` the fluorescence intensity was 505 a.u.
The fluorescence intensity of `GAAATACCACAAAAGCAGGTGACAGCAATTGTGTAG` is reported as 1490 a.u.
`CTAAAGGGAGGCTGTCACCAGGTTCCCCTATACTTC` gave a fluorescence intensity of 489 a.u.

Series 3 — technique: RNA Bind-n-Seq; molecule type: RNA; matrix: in vitro; concentration: 365 nM; reference: no-protein control; direction: higher = stronger binding
Target: RNA binding protein fox-1 homolog 2, RRM domain, GST-SBP tag (RBFOX2, Homo sapiens, UniProt O43251-10, residues 100-194)
Notes: natural RNA segment, single round, ends assumed
Shared flanks, not repeated: GGGAGUUCUACAGUCCGACGAUC … UGGAAUUCUCGGGUGCCAA
Construct (chain): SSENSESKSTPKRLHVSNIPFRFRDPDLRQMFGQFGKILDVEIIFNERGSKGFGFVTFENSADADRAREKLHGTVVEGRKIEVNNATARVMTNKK
For `AGAAAAGUAAUUUAUUCUGUCAAGAAAUAAAAAAAUAGGCUUUGUGUAUGGUUAAACUGUAAAUCUUAUGUUUACAAAAUACUGUAAUUUUCAGGAAAUCACUGUAUUAG`, “RBNS enrichment (R)” read 0.461.
`GCUGGGACAGAGGCUUGAGAGAACUAACGGCUCGGUGCCUUCUCCCUGGUCUCAGACCAUCGUCUCUGCACUGCGAAGGCAUUUGGUAGCCUCGCCACUGAGAUACUAAC`: “RBNS enrichment (R)” 0.337.
`UGUGCAGGUGCUGUGGCGGGAAGCACAAAGCGGCCGCGUGACUCAGUUUCCCUCCCUUCUCCCUCCAUCCGCAGCCACAGGGGAACUCGUCUCUUACAUACUCUCAUCUU` — result for “RBNS enrichment (R)”: 0.62.
`UUUGGUAGGAAAUUUUUGGGAGAUCUGAUUUUCUUAUCCAAGUUUUGUAAAUAGUUGUUAUUUCUAUAUUUGGAUUGGUGAAAGACCUCAAGUUUAUAUGUAAAGACAUA`: “RBNS enrichment (R)” 0.572.
`CAGGUUGGGUUUGCCAAACGUCUAAUUACCAAGCCAGGAUUUGUGCCAACAAAGCCACAUGGCUGUCCUAGUGAGCUUCCUUUCUUACCUGUCUUGAGCUGGGCGUCUCU`: “RBNS enrichment (R)” 0.746.
Under “RBNS enrichment (R)”, `CCCUUAAGACUGUUUUUAAAUGAAAAUGAGAACAUUAAAGAGGAUACUAUGUAUACUUGAGAAUCUUUAAGCAGCAAAUUAGUCAUUUGCAUGAAGCUCCAGGAUUACAG` is recorded as 0.366.
`AGGAUGGCUCCUCCGGUGUCGUGUUCUCUACCUAUAGAGCCAGCUCUGAAUGGAUGUGUUACCAGAAGCAUUUUAGCUACAGCCUAGAAAAUGACAUUGUGAACACAGUA` — result for “RBNS enrichment (R)”: 0.362.
`GUUGGUGAUGUCAUGAUGCACAGAAGUCCCAUGUGGAGUGUUUUUCCCACACUGACAACUUGGCUUCCUUUCUGUGUGUUCAGUCUGUUGUCUGAACUAACACUCCCGCG` — result for “RBNS enrichment (R)”: 0.372.

Series 4 — technique: protein binding microarray; molecule type: double-stranded DNA, one strand shown; matrix: in vitro; concentration: not given; reference: not given; direction: higher = stronger binding
Target: Histone acetyltransferase KAT6A, both winged helices, GST fusion (KAT6A, Homo sapiens, UniProt Q92794, residues 1-181)
Notes: 8-mer, flanks averaged, mean of 2 arrays, mostly near background
Residues (chain): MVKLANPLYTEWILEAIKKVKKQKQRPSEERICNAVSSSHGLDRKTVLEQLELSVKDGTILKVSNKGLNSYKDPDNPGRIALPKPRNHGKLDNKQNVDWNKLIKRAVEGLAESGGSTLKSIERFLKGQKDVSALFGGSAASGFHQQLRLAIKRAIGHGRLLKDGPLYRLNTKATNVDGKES
For `GATGTCCA`, the E-score was -0.00583.
The E-score of `CCGACATA` is reported as 0.0748.
With `ACACGAAG` the E-score was -0.0221.
The E-score of `AACAACTC` is reported as -0.252.
`CACTGCTA` gave an E-score of -0.119.
For `GAGATATC`, the E-score was -0.0504.
With `CGGTTCGA` the E-score was 0.171.
`AGACATTC` gave an E-score of 0.018.
The E-score of `AGGTCGCC` is reported as 0.0923.
With `GATTCTTA` the E-score was -0.0822.
The E-score of `ACTACCCA` is reported as -0.227.
For `CACACATA`, the E-score was -0.149.
With `GCCGAGAA` the E-score was 0.236.
`AGATTCGC` gave an E-score of 0.156.
`GAGGCCGC` has an E-score of 0.219.
The E-score of `CACAAGAC` is reported as -0.141.
`AATGTATC` has an E-score of -0.042.
The E-score of `GACAGCGA` is reported as 0.0632.
For `AGGCAATC`, the E-score was -0.192.
